# Experimental data from different studies.
# Numbered parts are unrelated; each lists some results of a single study. Substitutions count along the parent as printed.

# Set 1 — target: UBE2A UBC core domain (UniProt P49459); method: yeast two-hybrid; matrix: yeast; setting: mostly zero background; baseline: not given; direction: higher = stronger interaction
# UniProt P49459, sequence (whole entry, looked up): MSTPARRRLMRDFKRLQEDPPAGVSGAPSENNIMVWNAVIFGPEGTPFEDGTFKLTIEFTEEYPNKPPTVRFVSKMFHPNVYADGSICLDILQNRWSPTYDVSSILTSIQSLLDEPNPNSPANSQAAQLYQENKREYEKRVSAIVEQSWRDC
# B1: TRIM41 RING domain (UniProt Q8WV44); chain PVQTLQEEAVCAICLDYFTDPVSIGCGHNFCRVCVTQLWGGEDEEDRDELDREEEEEDGEEE
# B2: ZMYND11 RING domain (UniProt Q15326); chain DEIDWETENHDWYCFECHLPGEVLICDLCFRVYHSKCLSDEFRLRDSSSPWQCPVCRSIKKKNTNKQEM
# B3: RUFY1 RING domain (UniProt Q96T51); chain QALKGHAWLKDDEATHCRQCEKEFSISRRKHHCRNCGHIFCNTCSSNELALPSYPKPVRVCDSCHTLLLQRCSSTAS
Sequence,lacZ reporter activity
FDPPLESKYECPICLMALREAVQTPCGHRFCKACIIKSIRDAGHKCPVDNEILLENQLFP (TRAF6 RING domain (UniProt Q9Y4K3)),0
LVKDFNPYITCYICKGYLIKPTTVTECLHTFCKTCIVQHFEDSNDCPRCGNQVHETNPLE (PCGF5 RING domain (UniProt Q86SE9)),0
ASEEEFQFLRCQQCQAEAKCPKLLPCLHTLCSGCLEASGMQCPICQAPWPLGADTP (PML RING domain (UniProt P29590)),0
B1 (TRIM41 RING domain),0
LEALSSDFLACKICLEQLRAPKTLPCLHTYCQDCLAQLADGGRVRCPECRETVPVPPEGV (TRIM56 RING domain (UniProt Q9BRZ2)),0
B2 (ZMYND11 RING domain),0
ASPKIFQKTKCSICNSALELPSVHFLCGHSFHQHCFESYSESDADCPTCLPENRKVMDMI (VPS11 RING domain (UniProt Q9H270)),0
B3 (RUFY1 RING domain),0

# Set 2 — read-out: peptide-MHC binding; molecule type: peptide; tested at: concentration not given
# Target: HLA class I histocompatibility antigen, A alpha chain, allele A*25:01 (Homo sapiens, UniProt P04439)
Sequence,binding
KRLQILGYL,inactive
TTILGLLPM,inactive
ATEDPSSGY,inactive
YTENTSSYY,inactive
VLYHRYNLV,inactive
QTEPKTSVV,inactive
TLKDGDFIL,inactive
SLGDPLHQA,inactive

# Set 3 — target: CCNE1, cyclin fold, Cln2 fusion (human); method: yeast growth competition, sequencing; matrix: yeast; setting: strong parent motif; baseline: not given; direction: higher = stronger binding
# Starting sequence: viral docking peptide; YKVKRRLVFGADD; partner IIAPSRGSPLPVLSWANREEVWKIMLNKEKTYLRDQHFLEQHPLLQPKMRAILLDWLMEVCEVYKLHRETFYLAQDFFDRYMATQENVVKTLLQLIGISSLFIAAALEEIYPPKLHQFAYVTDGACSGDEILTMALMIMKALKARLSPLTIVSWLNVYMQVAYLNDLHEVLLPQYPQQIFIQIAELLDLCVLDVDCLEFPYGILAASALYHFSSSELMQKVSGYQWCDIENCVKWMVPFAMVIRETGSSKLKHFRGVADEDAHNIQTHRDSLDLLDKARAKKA
Substitution,normalised enrichment score
L7G,0.0389
D12G,5.33
K4H,1.32
R6M,3.73
A11P,6.59
V3F,3.68
K4L,0.876
R5A,0.569

# Mixed results
SMILES,organism,test,setting,scale,quantity,result
O=c1c2ccccc2[se]n1-c1ccccc1,Sarcocystis neurona,parasite growth,"10 µM, 96 h, second screen",baseline: untreated,log2 fold change,0.47

# For quick reference, copied from above (set 3):
Substitution,normalised enrichment score
A11P,6.59
R6M,3.73
D12G,5.33
